Measured values pooled from the literature.
Parts stem from different laboratories: compare values within a part only.

Series 1
Target: Interferon regulatory factor 3, full length, phosphomimetic (IRF3, Homo sapiens, UniProt Q14653, residues 1-427, S386D/S396D/S398D/S402D/T404D/S405D)
Method: protein-binding microarray
Form: double-stranded DNA, one strand shown
Matrix: in vitro
Concentration: 2540 nM top
Notes: 60-bp whole probe
With: salmon DNA 0.4 mg/ml
Relative to: random background probes
Direction: higher = stronger binding
Target sequence (chain): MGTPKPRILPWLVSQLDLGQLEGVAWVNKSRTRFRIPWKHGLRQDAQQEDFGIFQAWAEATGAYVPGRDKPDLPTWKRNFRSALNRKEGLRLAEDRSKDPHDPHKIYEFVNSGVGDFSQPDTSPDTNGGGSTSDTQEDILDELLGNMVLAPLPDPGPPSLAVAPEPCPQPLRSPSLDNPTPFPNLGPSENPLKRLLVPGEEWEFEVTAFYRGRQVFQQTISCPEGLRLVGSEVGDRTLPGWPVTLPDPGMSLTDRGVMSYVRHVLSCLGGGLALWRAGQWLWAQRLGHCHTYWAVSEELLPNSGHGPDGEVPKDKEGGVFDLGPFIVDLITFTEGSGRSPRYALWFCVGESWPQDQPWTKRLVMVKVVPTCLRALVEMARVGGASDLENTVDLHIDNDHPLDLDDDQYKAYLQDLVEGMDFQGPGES
Sequence | fitted relative affinity [z-score]
GCCTAGCACTTAGGTATTCTTATCCTTTAGTGCTAGGTCTTGATTCGCTTGACGCTGCTG | 1.01
GCCTAGCACGACGGTTACGGTCTCGGGACGTGCTAGGTCTTGATTCGCTTGACGCTGCTG | 1.14
GCCTAGCACTTAGGGATCCTTATCCTTTAGTGCTAGGTCTTGATTCGCTTGACGCTGCTG | 3.57
GCCTAGCACGAGGGTATCCTTTTCCTGACGTGCTAGGTCTTGATTCGCTTGACGCTGCTG | 5.93

Series 2
Target: Fragile X messenger ribonucleoprotein 1, C-terminal low-complexity region (Fmr1, Mus musculus, UniProt P35922)
Method: RNA Bind-n-Seq
Form: RNA
Matrix: in vitro
Concentration: 200 nM
Notes: whole 134-nt RNA, ends assumed
With: 150 mM KCl
Relative to: input library
Direction: higher = stronger binding
All sequences stand within: GGGAGUUCUACAGUCCGACGAUC … UGGAAUUCUCGGGUGUCAAGG
Sequence | log2 enrichment
GUCCUGUGCUACACAUCGUAUGUACCGAAUCAAACCCCCAAACCCCCAAACCCCCAAAAAAGUAUUAUGUUACGCCGUUCGGAUCUGCAC | -0.377
UAAGGCCAGUAAAAUUUUAGUACCUGGAGGUUUGACUCUAAUUUUUGCACUGAUGGUGCCAAAGGGCCCUGAGUCAAAAGGAUAGCCAAG | -1.82
UCCUCAAGUCCUGUGCUACACAUCGUAUGUACCGAAUCGGAGGAGGGGAGGAAAGUAUUAUGUUACGCCGUUCGGAUCUGCACUUCCAGC | -0.431
UAACUUUAGAGGAGGAUCUGAUGGAUAUGGCAGUGGACGUGGAUUUGGGGAUGGCUAAAAUGGGUAUGGAGGAGGACCUGGAGGUGGCAA | 0.121
GCAGGAAGUAAAUACAAAUGGAAAUGCUUCGGAUAGUGGCAGGGGUGGGGGUUGCUAAGGAAAGGGUGGGAUGGGAGUGGGUAAAGAGUU | 0.462
UUCCUCAAGUCCUGUGCUACACAUCGUAUGUACCGAAUCGGGCGGCGGCGGAAAGUAUUAUGUUACGCCGUUCGGAUCUGCACUUCCAGC | -0.0404

Series 3
Target: Histone acetyltransferase KAT6A, both winged helices, GST fusion (KAT6A, Homo sapiens, UniProt Q92794, residues 1-181)
Method: protein binding microarray
Form: double-stranded DNA, one strand shown
Matrix: in vitro
Concentration: not given
Notes: 8-mer, flanks averaged, mean of 2 arrays, mostly near background
Relative to: not given
Direction: higher = stronger binding
Construct (chain): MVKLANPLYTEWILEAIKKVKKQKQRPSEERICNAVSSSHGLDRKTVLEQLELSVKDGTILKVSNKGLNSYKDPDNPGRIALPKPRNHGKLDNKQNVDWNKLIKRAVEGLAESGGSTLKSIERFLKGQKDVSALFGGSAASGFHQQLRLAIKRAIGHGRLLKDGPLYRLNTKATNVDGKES
Sequence | E-score
CCAGCATC | -0.168
AGGTTAAG | -0.174
GACGTCAA | -0.0173
GATAGACC | 0.107
ACGATTCG | 0.183
CGAGTCGA | -0.0453
AGCTGACC | -0.0592

Further values, each from its own experiment
Molecule | target | assay | test system | setting | how to read | endpoint | result
PhoQ, residues 284 288 289 292 302 303 AQGLTV | PhoP, residues 12 14 15 18 19 SPWRL (Escherichia coli, UniProt P23836) | Sort-seq, item: YFP reporter | E. coli | PhoQ-PhoP variant library, with: 10 µM Mg2+ | relative to: high Mg2+ state, higher = stronger signaling | fold induction | 0.663

Repeated from above (series 3):
Sequence | E-score
GATAGACC | 0.107
